Experimental data of several laboratories.
Numbered parts are unrelated; each lists some results of a single study.

Series 1
Target: RNA binding protein fox-1 homolog 2, RRM domain, GST-SBP tag (RBFOX2, Homo sapiens, UniProt O43251-10, residues 100-194)
Technique: RNA Bind-n-Seq
Form: RNA
Medium: in vitro
Tested at: 365 nM
Notes: natural RNA segment, single round, ends assumed
Baseline: no-protein control
Reading: higher = stronger binding
Quantity: RBNS enrichment (R)
All sequences stand within: GGGAGUUCUACAGUCCGACGAUC … UGGAAUUCUCGGGUGCCAA
Construct (chain): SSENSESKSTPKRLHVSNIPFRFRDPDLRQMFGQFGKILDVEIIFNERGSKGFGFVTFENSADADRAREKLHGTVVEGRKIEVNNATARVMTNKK
GUAUUAUUUUUACUGUUAAAAAAUUUUUUAAAAAUGUGAAAUGUAAUGUUUUUACAGCAACAAUAUGAAAUAUAUUUUAUAAGGAAUAAAAUGGUACCUUGUCUGAUUUA: 0.596
CCUUCUCCAGCCGCCCUUCACUGCAGAGAACCGGAAGAAAACUAUGGAUAAAAUCAUUAAAGGGAAGCUGGUGCUGCCCCCCUACCUCACCCCGGAUGCCCGGGACCUUG: 0.492
AUGUGUUAUGAAUCGGUGCUGUCAGCCCUGCUGUCAGACCUUCUUCCACAGCAAAUGAGAUGUAUGCCCAAAGACGGUAGAAUUAAAGAAGAGUAAAAUGGCUGUUGAAG: 1.58
GCCGUCUGACCAGUUGGCUGGCGGUGGUUCUGGUGGAGCACGAGGGAGCCCGGGUGGUGCCCUGAGCCUCGAGCUGCUCUCUGUCACUGUCUUGAAUCAGACUCAGAAAU: 0.344
CCGGGUUCCCCUCUGGAGCCACGGGGAACAGGGUAGGAAAAGGAGAAGAAGCACCGUGCGCAUACAGCCCACCGCAGAAGCAGCAGGUGCAGGGUGCGCGAAUGCGCAAG: 0.865
GGGAGUUCUUUCUAACUAGCCAUCACACCUGUAGCUUUAGUUGCUUUGUGUGGCUUCUGGCCUAGCUUUUCAGAUGAGCCGCCUGGAUUUUUACCUGGCCUGUUCUGAUA: 0.196
AGCCCCAAGAGCAUCCAAUAAAAGCUGUGCCAUUAUUGAACUUGUCAAGACAUGGUCGAUCUUCCUCAAGCUAGAAGCAUGGAGUCCUGUAUACAGUGCAGAGCCUUCUC: 0.42
GCCUCCUCCAUCUUUCAUGUGGUACCCAGGUAAAUGUGGACAUAGUGUGAAGGGACCUGUGGCCACCAGAGGAUGCUCUGGGCCUACUGAGGACAGGCCACUUGUGCUCA: 0.616
AUUUAGGUGCUUUCUCUGGCAUCUAUAAAAGUAAAUUCUAGUGCCUGCCAAGUGAUGGAUUAUAAUGGUCUCUAGCAAAUGUGUGGUAAACAUUCAUAUGGCCAUUAAUU: 0.465
AGAGCCCAGAAAGAUUUUAGGACCCAGGAGGUGCUUUUCCUCCAGCUGUUGCCAGUGUCCUUCUGAGCCUGGAUUCUCCGGGGAUUUCCGUCGUGGUGGAUGGACUUCAC: 0.318
AUCUUUGCUACCUAGAACCUGCAGUCUGUUUUAUGGCAACACUGGAUAAUGGCUUUUUGAAAUUGAGGGGGAAAAAUUGGAGCAUCUGUAAACAGAAAUGCCAAAUUAUU: 0.796
UUGUUAUUACCUAUAAUUGAGAAUAAGAAAAAUAUGGAAAGUUCCCUCAAAACAGAGAGAUGCUCUCUAGUGUUUAGAAAAGUAUGGUAGAACAAGUUGCUUAUAAUUGA: 0.392

Series 2
Target: UBE2G1 UBC core domain (UniProt P62253)
Technique: yeast two-hybrid
Medium: yeast
Notes: mostly zero background
Baseline: not given
Reading: higher = stronger interaction
Quantity: lacZ reporter activity
B1: RNF14 RING domain (UniProt Q9UBS8); chain IKCFNSKLFLCSICFCEKLGSECMYFLECRHVYCKACLKDYFEIQIRDGQVQCLNCPEPKCPSVATPGQVK
B2: RFPL2 RING domain (UniProt O75678); chain MAALFQEASSCPVCSDYLEKPMSLECGCAVCLKCINSLQKEPHGEDLLCCCSSMVSRKNKIRR
B3: PEX2 RING domain (UniProt P28328); chain DNTLATSGKECALCGEWPTMPHTIGCEHIFCYFCAKSSFLFDVYFTCPKCGTEVHSLQPLK
B4: UBE4A RING domain (UniProt Q14139); chain LQQQEEETYADACDEFLDPIMSTLMCDPVVLPSSRVTVDRSTIARHLLSDQTDPFNRSPLTMDQIRPNTELKEKIQRWLAERKQQKEQLE
B5: ANKIB1 RING domain (UniProt Q9P2G1); chain LSPGDLDTSLCDICMCSISVFEDPVDMPCGHDFCRGCWESFLNLKIQEGEAHNIFCPAYDCFQLVPVDIIE
B6: TRIM38 RING domain (UniProt O00635); chain STKKMMEEATCSICLSLMTNPVSINCGHSYCHLCITDFFKNPSQKQLRQETFCCPQCRAPFHMDSLRP
B7: TRIM35 RING domain (UniProt Q9UPQ4); chain PSRSFKEELLCAVCYDPFRDAVTLRCGHNFCRGCVSRCWEVQVSPTCPVCKDRASPADLRT
B8: TRIM15 RING domain (UniProt Q9C019); chain SLKVVHELPACTLCAGPLEDAVTIPCGHTFCRLCLPALSQMGAQSSGKILLCPLCQEEEQAETPMA
B9: RNF112 RING domain (UniProt Q9ULX5); chain QPMAPRELPTCSICLERLRDPISLDCGHDFCIRCFSTHRLPGCEPPCCPECRKICKQKRGLR
B10: RNF175 RING domain (UniProt Q8N4F7); chain LPTRSLSDNICAVCGQKIIVELDEEGLIENTYQLSCNHVFHEFCIRGWCIVGKKQTCPYCKEKVDLKRMIS
Target sequence (chain): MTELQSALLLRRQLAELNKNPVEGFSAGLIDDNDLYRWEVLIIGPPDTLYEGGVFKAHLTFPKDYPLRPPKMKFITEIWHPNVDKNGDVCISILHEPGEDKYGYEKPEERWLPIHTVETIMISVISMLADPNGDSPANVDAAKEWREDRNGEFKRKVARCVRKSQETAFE
B1 (RNF14 RING domain): 0
B2 (RFPL2 RING domain): 0
QLQDEEDDSLCRICMDAVIDCVLLECGHMVTCTKCGKRMSECPICRQYVVRAVHVF (RNF34 RING domain (UniProt Q969K3)): 0
B3 (PEX2 RING domain): 0
KRQCSDVDDICSICQAEFQKPILLICQHIFCEECMTLWFNREKTCPLCRTVISDHINKW (RNFT1 RING domain (UniProt Q5M7Z0)): 0
B4 (UBE4A RING domain): 0
B5 (ANKIB1 RING domain): 0
B6 (TRIM38 RING domain): 0
LKQVSIRENCCSLCCDEVADTQLKPCGHSDLCMDCALQLETCPLCRKEIVSRIRQI (RSPRY1 RING domain (UniProt Q96DX4)): 0
B7 (TRIM35 RING domain): 0
B8 (TRIM15 RING domain): 0
B9 (RNF112 RING domain): 0
KIKDLNEHIVCCLCAGYFVDATTITECLHTFCKSCIVKYLQTSKYCPMCNIKIHETQPLL (PCGF1 RING domain (UniProt Q9BSM1)): 0
B10 (RNF175 RING domain): 0

Series 3
Target: Histone acetyltransferase KAT6A, winged helix 2, GST fusion (KAT6A, Homo sapiens, UniProt Q92794, residues 85-181)
Technique: protein binding microarray
Form: double-stranded DNA, one strand shown
Medium: in vitro
Tested at: not given
Notes: 8-mer, flanks averaged, mean of 2 arrays, mostly near background
Baseline: not given
Reading: higher = stronger binding
Quantity: E-score
Construct (chain): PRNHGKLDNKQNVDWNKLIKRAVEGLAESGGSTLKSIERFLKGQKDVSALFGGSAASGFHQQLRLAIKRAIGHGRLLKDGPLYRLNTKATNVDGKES
AGATTGTC: -0.125
ACTAGGCG: 0.172
AGTCCGAC: -0.195
GACGGCAC: 0.117
ATTTACTG: -0.0563
AGAGATTG: -0.12
GCATTGGA: -0.221
CACCGCCA: 0.173
GGAGCGTA: 0.123
ATTCTAGG: -0.0897
CGAGCTGA: 0.0877
AGAGGTTC: -0.0877
ACTGACGG: 0.129
CTTGCCTA: -0.0604
CATCATCA: 0.0184
GGCCAAAA: 0.158
CGCGTTCA: 0.184
TAGATCAA: 0.0132
GACTCGAC: -0.0901
CTGCCTTA: -0.131
GCCTCTAA: -0.108
ACACCCCC: -0.175
GTTTTCAA: 0.0483
CAGATCCC: -0.0509
GAGGATCC: -0.0146

Series 4
Target: Hepatocyte nuclear factor 3-alpha (Foxa1, Mus musculus, UniProt P35582, residues 1-468, full length assumed)
Technique: EMSA with sequencing
Form: double-stranded DNA, one strand shown
Medium: in vitro
Tested at: 10 and 20 nM
Notes: whole designed probe, mean of two concentrations, ends assumed
Baseline: negative control set to 0
Reading: higher = stronger binding
Quantity: normalised bound fraction
All sequences stand within: GTGAGCGGTGCCCATTGATGGGGAAC … TTTCACTGGGATCGTGGGGAC
Residues (chain): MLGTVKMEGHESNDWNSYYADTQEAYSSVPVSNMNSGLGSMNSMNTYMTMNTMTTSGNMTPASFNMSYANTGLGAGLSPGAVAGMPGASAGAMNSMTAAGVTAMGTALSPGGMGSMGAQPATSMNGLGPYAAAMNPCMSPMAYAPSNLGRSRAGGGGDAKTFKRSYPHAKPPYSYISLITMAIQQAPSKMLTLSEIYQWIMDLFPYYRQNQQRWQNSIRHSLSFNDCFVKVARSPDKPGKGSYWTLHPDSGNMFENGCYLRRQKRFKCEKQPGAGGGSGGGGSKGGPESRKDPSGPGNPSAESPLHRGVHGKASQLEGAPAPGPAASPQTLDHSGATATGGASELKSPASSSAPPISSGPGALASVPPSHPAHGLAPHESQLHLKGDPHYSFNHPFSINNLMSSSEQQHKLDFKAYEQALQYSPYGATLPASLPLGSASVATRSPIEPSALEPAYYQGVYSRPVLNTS
CCCTTGGAATGAAGGCAAATGAGGATTTAGAATACTTGCAGGTTGTTCTGTCAGTACTAATTTGAGTGCTAAAGTTCTATTTGCAAACCTAAGTAATCTGGAATGTAGACAGCTTGAACAAGATGAAATTGTGATATCGCCCAAAGGAACAAGCTGATCAGGGAAAGCTCAGCATGCATTTGAATCAAGAGCA: 0.0569 ratio
GACGGGCACCAGGAGCCCTGTGTCCTCTGCCTTGCAGGTGTTTAGGGAACATTGTTCAGACTGGAAGGAAGAGCCACGTGAAAATGCCCTTTCTGTTTACTCTGCTGGGAAGGATATGAAGCCAAACAGAACCAGCTACGGGAGTCTTTCGACCGCAAGACAAAAGGTCCTTTGCCCCCACTACCTGCAACTT: 0.284 ratio
ATAAATGAGATTCTTTGAATCTACATAACTGGTCAAGATAATAAATGCATTAGGAATTCCCAGAGGATAGGCAGTTTGGGACTGAGATCACTGTGTAATCTTGAAGATGCAGGTTGAAGTAGACTTTTATTAAAATTTGAGCTAAAGTGGATAAGGTTCAGATAGACTACAGTATGGGGTGGACACTGTATTA: -0.0267 ratio
AAAGGCTTCATAATGTTTTTGAGGTGTTTTGTAGGCTAGTTTTTGGGTTTGTTTATTTTAAAAAAAAAACTCTTTAATGTTTTTCAGAAGATAAGTAATCTAGAACAATTATACCTTTTTCTTAATGAACGGAAAGAATCAAGGGTGTCCCTAAGGCTGTGGTGAATATAGGAGCAACTGAGGTGAGGGCCAG: 0.325 ratio
CAGGACATAGCACACTTTTGAATTCATTTTACAACTATTTATTGAGTGCTTTTTATGTGCCAGATTCCCCCCAGCTCCCACTGGTGGTACAGTGTAAATATAGCTGTGAAAACATGCACTTTTCTCAGCCTTCATTATCATTCTAGTGAAGGGGGCAGATGGTAAACAACTGAACAATTAAGTAAACATGACA: 0.498 ratio
ATCTTCCCCCTCTTCCTTTTTTTTTCAGCTCACCTTCCCGGGTTATTTGCAGATAGGAAAATAAATAAAGCCGGCATTCGTTAACCCTCTTCTGGCGCAAACTGCTGTTTGCTCTGGATGAATCATGGTCCTTTGGCGACGCCAGGCTCCGGGAGAGCAAAGCACCGTGTCAGGGCCATGATCCGGGGTGGCC: 0.316 ratio

Excerpt of the above (series 2):
B7 (TRIM35 RING domain): 0
B8 (TRIM15 RING domain): 0
B9 (RNF112 RING domain): 0
KIKDLNEHIVCCLCAGYFVDATTITECLHTFCKSCIVKYLQTSKYCPMCNIKIHETQPLL (PCGF1 RING domain (UniProt Q9BSM1)): 0
